Measurements of several laboratories.
Compare with care: the assays were run in different laboratories. Values joined by “and” are separate records of one study, mostly repeats; a detail may differ. Numbers after ± are the reported error.

Molecule | tested on | test | system | setting | scale | quantity | value
RYLALYNKYKYFSGA | human CD4 T cells | AIM | peptide | – | – | responding donors | 15%
Cc1ccc2nc(Cl)c3cc(C(=O)NCCCN4CCC(C)CC4)sc3c2c1 | SARS-CoV-2 | cytopathic effect, cell-based CPE | USA_WA1/2020 | round 2, 5-point dilution | – | AC50 | 3.55 µM
C/C=C1\NC(=O)C(C(C)O)NC(=O)C(CCCN)NC(=O)C(CCO)NC(=O)CNC(=O)C(CCN)NC(=O)C(NC(=O)CC(O)CCCCCCCCCCC)COC(=O)C(C(O)CCl)NC(=O)C(C(O)C(=O)O)NC1=O (stereo not shown) | – | calcein leakage | DOPC/CHOL liposomes | concentration not given, with: 20 wt% PEG-8000 | – | fusion time constant | 3 ± 1 min
CNC(=O)[C@@H](NC(=O)[C@H](CC(C)C)[C@H](O)C(=O)NO)C(C)(C)C | human fibrinogen | SDS-PAGE | Daboia russelii | concentration not given, unit not given, with: GA venom | baseline: untreated fibrinogen | remaining fibrinogen Aα chain | 0.719
Cn1c(Cn2ccc(C(F)(F)F)c(Oc3cc(Cl)cc(C#N)c3)c2=O)n[nH]c1=O | HIV-1 | viral replication, single-round infection | RT mutant V106A/L234I | – | – | EC50 | > 0.1 µM
VTKNSKVQIGEYTFE | human CD4 T cells | AIM | peptide | – | – | responding donors | 8%
Cc1ccsc1CNc1ccc(C(=O)N2CCCC(Cn3ccnc3C)C2)cc1 (stereo not shown) | Lassa mammarenavirus | viral replication | Huh-7 | 10 µM, 72 h | – | remaining activity | 67%
CC(C)=CCc1cc(-c2coc3cc(O)cc(O)c3c2=O)cc(O)c1O | – | viral replication | SARS-CoV-2 trVLP system | 100 µM | – | inhibition | > 90%
C[C@@H]1CN(CCCn2c3ccccc3c3ccccc32)C[C@H](C)N1 | HeLa | Ebola VLP entry | – | – | – | IC50 | 6.11 µM
CCCN(CCC)CCNC(=O)c1cc(Sc2ccc(Cl)cc2)nc2ccccc12 | SARS-CoV-2 | cytopathic effect | USA_WA1/2020 | first round 5-point | – | maximum response | 86.9%
COc1cc2cc(c1)C(=O)NCCCC(=O)N[C@H]1CN(C(=O)c3cccc(-c4ccccc4OC)c3)CC[C@@H]1OCc1cccc(c1)O2 | Lassa mammarenavirus | viral replication | Huh-7 | 10 µM, 72 h | – | remaining activity | 63%
CCCC(=O)OCSc1ccccc1C(=O)NCCC(N)=O | HIV-1 | viral replication | human PBMC, subtype C 98IN017, CXCR4-tropic clinical isolate | – | – | EC50 | 2.62 ± 1.12 µM
COc1ccccc1-c1ccc(CN2CCC(NC(=O)Cc3ccc(F)cc3)C2)cc1 (stereo not shown) | SARS-CoV-2 | cytopathic effect, cell-based CPE | USA_WA1/2020 | round 1, 5-point dilution | – | AC50 | 12.6 µM
VNLTTRTQLPPAYTN | human CD4 T cells | AIM | peptide | – | – | responding donors | 8%
COc1ccc2cc3[n+](cc2c1OC)CCc1cc2c(cc1-3)OCO2 | SARS-CoV-2 spike protein | – | Vero C1008 | 20 µg/mL | – | inhibition | 96.7 ± 1.7%
EVTPSGTWLTY | – | AIM | peptide, CD8+ T cells from PBMC, human donors | dose not given | – | response magnitude per positive donor | 114
Cc1nc2sccn2c1C(=O)N1CCc2onc(-c3cccc(F)c3)c2C1 | Lassa mammarenavirus | viral replication | Huh-7 | 10 µM, 72 h | – | remaining activity | 48%
Cc1cc(/C=C/C#N)cc(C)c1Nc1nc(Nc2ccc(/C=C/C#N)cc2)ncc1N | HIV-1 | viral replication, single-round infection | RT mutant V106A/F227L | – | – | EC50 | < 0.002 µM
Cc1nc2n(n1)CC(=O)N[C@@H](C(C)C)CN(C(=O)CCC(C)C)CC(=O)N[C@@H](CC(C)C)c1nc(cs1)C(=O)N[C@H]2Cc1ccccc1 | Lassa mammarenavirus | viral replication | Huh-7 | 10 µM, 72 h | – | remaining activity | 68%

Molecule | tested on | test | system | setting | scale | quantity | value
CCn1c2ccccc2c2cc(CN3CCN(Cc4cccc(Cl)c4)CC3)ccc21 | SARS-CoV-2 | cytopathic effect | USA_WA1/2020 | retest, 8-point, duplicates | – | efficacy | 79.5%
O=C1Nc2ccc(Cl)cc2[C@@](C#CC2CC2)(C(F)(F)F)O1 | HIV-1 | viral replication, single-round infection | RT mutant V106A/L234I | – | – | EC50 | 0.0003 ± 3e-05 µM
CCOP(=S)(OCC)Oc1nc(Cl)c(Cl)cc1Cl | rat CYP2C | tolbutamide hydroxylation | liver microsomes | concentration not given | – | Vmax | 1.68 ± 0.31 nmol/min/mg protein
Clc1ccc2nc(N3CCC(NCCc4cccnc4)CC3)sc2c1 | SARS-CoV-2 | cytopathic effect | USA_WA1/2020 | retest, 8-point, duplicates | – | efficacy | 64%
CCc1c(C(=O)C(N)=O)c2c(OCC(=O)O)cccc2n1Cc1ccccc1 | C2C12 | – | – | 1 µM, with: MP venom | baseline: venom alone | viability difference | 17.7%
Cc1cc(/C=C/C#N)cc(C)c1Nc1ccnc(Nc2ccc(C#N)cc2)n1 | HIV-1 | viral replication, single-round infection | RT mutant E138K/M184I | – | – | EC50 | 0.0011 ± 0.0001 µM
Cc1ccc(-c2nc(C[S+]([O-])CC(=O)N3CCN(c4ccc(Cl)cc4)CC3)c(C)o2)cc1 (stereo not shown) | SARS-CoV-2 | cytopathic effect | USA_WA1/2020 | round 1, 5-point | – | efficacy | 36.9%
RPLLESEL | – | AIM | peptide, CD8+ T cells from PBMC, human donors | HLA-B*07:02 restricted, unit not given | baseline: positive over tested donors | frequency of responding donors | 50
Cc1nc2n(n1)CC(=O)N[C@@H](C(C)C)CN(Cc1c[nH]cn1)CC(=O)N[C@@H](CC(C)C)c1nc(cs1)C(=O)N[C@H]2Cc1ccccc1 | Lassa mammarenavirus | viral replication | Huh-7 | 10 µM, 72 h | – | remaining activity | 98%
NSASFSTFK | – | AIM | peptide, CD8+ T cells from PBMC, human donors | dose not given | – | response magnitude per positive donor | 112
C[C@@H](C1=C(CCN(C)C)Cc2ccccc21)c1ccccn1.O=C(O)/C=C\C(=O)O | HeLa | Ebola VLP entry | – | – | – | maximal inhibition | 90%
NC(=O)CCNC(=O)c1ccccc1S | HIV-1 | viral replication | human PBMC, subtype C 93MW959, CCR5-tropic clinical isolate | – | – | EC50 | 4.64 ± 0.24 µM
COc1ccccc1C(=O)NC1CCCN(Cc2cccc(-c3ccc(C)c(Cl)c3)c2)C1 (stereo not shown) | SARS-CoV-2 | cytopathic effect | USA_WA1/2020 | round 1, 5-point | – | maximum response | 65.5%
Nc1ccn([C@H]2C[C@H](O)[C@](CO)(CF)O2)c(=O)n1 | HIV-1 K65R | – | MT4 | – | – | IC50 | 0.0346 µM
TDYKHWPQIAQFAPS | human CD4 T cells | AIM | peptide | – | – | responding donors | 8%
Nc1ncnc2c([C@@H]3N[C@H](CO)[C@@H](O)[C@H]3O)c[nH]c12 | Marburg virus | antibody staining | HeLa, Musoke | 12.5 µM | – | antigen-positive cells | 0.5% and 4%
COc1ccc(-c2cn3c(n2)sc2cc(C(=O)NCCCN4CCCCCC4)ccc23)cc1 | SARS-CoV-2 | cytopathic effect, cell-based CPE | USA_WA1/2020 | round 2, 5-point dilution | – | AC50 | 14.1 µM
AEIRASANL | – | AIM | peptide, CD8+ T cells from PBMC, human donors | dose not given | – | response magnitude per positive donor | 113

Repeated from above:
Molecule | tested on | test | system | setting | scale | quantity | value
CCCN(CCC)CCNC(=O)c1cc(Sc2ccc(Cl)cc2)nc2ccccc12 | SARS-CoV-2 | cytopathic effect | USA_WA1/2020 | first round 5-point | – | maximum response | 86.9%
VTKNSKVQIGEYTFE | human CD4 T cells | AIM | peptide | – | – | responding donors | 8%
Cc1nc2sccn2c1C(=O)N1CCc2onc(-c3cccc(F)c3)c2C1 | Lassa mammarenavirus | viral replication | Huh-7 | 10 µM, 72 h | – | remaining activity | 48%
VNLTTRTQLPPAYTN | human CD4 T cells | AIM | peptide | – | – | responding donors | 8%
CCn1c2ccccc2c2cc(CN3CCN(Cc4cccc(Cl)c4)CC3)ccc21 | SARS-CoV-2 | cytopathic effect | USA_WA1/2020 | retest, 8-point, duplicates | – | efficacy | 79.5%
